# Measurements pooled from the literature.
# Protocols differ between the studies behind these lines. Numbers after ± are the reported error.
SMILES,cell line,test,conditions,measurement,value
Ic1cccc2cnccc12,mouse DRG neurons axotomized,axon fragmentation,"2 h pretreatment, 16 h post-axotomy",EC50,2.1 µM
C=C1[C@H](O)CC(=C/C=C2\CCC[C@]3(C)[C@@H]([C@@H](C)CCCC)CC[C@@H]23)C[C@H]1O,HL-60,"cell differentiation, NBT reduction",50% maturation,EC50,0.005 µM
CC(C)C[C@@H](/C=C/[C@H](Cc1ccccc1)C(=O)N1CCC[C@H]1C(=O)N[C@H](C(=O)N[C@@H](CCCNC(=O)OCc1ccccc1)C(=O)NC1CC(C)(C)N([O])C(C)(C)C1)C(C)C)NC(=O)OCC[S+]([O-])CC1(C)COC1 (some centres unmarked),HT-1080,ferroptosis protection,with: erastin 10 µM,EC50,3.5 µM
Nc1ncnc2c1c(-c1ccc(O)cc1)cn2[C@@H]1O[C@H](CO)[C@@H](O)[C@H]1O,HEK,cytotoxicity,,EC50,> 200 µM
C(=C/c1ccccc1)/c1ccccc1,THP-1,"apoptosis, flow cytometry, measured: caspase-3 activity","24 h, 50% apoptosis induction",EC50,> 50 µM
Nc1ncnc2c1c(-c1ccc(Cl)cc1F)cn2[C@@H]1O[C@H](CO)[C@@H](O)[C@H]1O,HEK,cytotoxicity,,EC50,> 200 µM
CCc1c2c(nc3ccc(O)cc13)-c1cc3c(c(=O)n1C2)COC(=O)[C@@]3(CC)OC(=O)[C@H](N)C(C)C,CT26,"cell viability, MTT",72 h,EC50,52.1 µM
COc1cc(CNC(=O)C[C@H](C)CCC=C(C)C)ccc1OCc1cn(-c2cccc(Cl)c2)nn1,SF-268 CNS cancer cells,SRB,"10 µM, 48 h",growth percent,86%
Cc1ccccc1-c1cn([C@@H]2O[C@H](CO)[C@@H](O)[C@H]2O)c2ncnc(N)c12,HEK,cytotoxicity,,EC50,> 200 µM
COc1cc(CNC(=O)C[C@H](C)CCC=C(C)C)ccc1OCc1cn(-c2ccc(Br)cc2)nn1,OVCAR-4 ovarian cancer cells,SRB,"10 µM, 48 h",growth percent,49.5%
CCOC(=O)CCCCC[C@@H]1NC(=O)[C@H]2CCCN2C(=O)[C@H](Cc2ccccc2)NC(=O)[C@H](Cc2ccccc2)NC1=O,human iPSC-derived NPCs,"inducer, ELISA, measured: intracellular progranulin",18 h,EC50,6 ± 0.8 µM
C=C1[C@H](O)CC(=C/C=C2\CCC[C@]3(C)[C@@H]([C@H](C)CCCCO)CC[C@@H]23)C[C@H]1O,HL-60,"cell differentiation, NBT reduction",50% maturation,EC50,0.02 µM
FC(F)(F)c1ccnc(-c2cc(C(F)(F)F)ccn2)c1.FC(F)(F)c1ccnc(-c2cc(C(F)(F)F)ccn2)c1.[Cl-].[Cl-].[Ru+2].c1csc(-c2ccc(-c3ccc(-c4nc5c6cccnc6c6ncccc6c5[nH]4)s3)s2)c1,SK-MEL-28,cell viability,"normoxia, with: red light 633 nm, 100 J/cm2",EC50,7.02 µM
COc1cccc(C2CC(c3ccccc3Cl)Nc3nc(N)nn32)c1 (centres unmarked),MEF with dox-inducible FLAG-LMNB1,"lamin B1 reduction, high-content imaging, measured: lamin B1","48 h, with: doxycycline",EC50,8.6 ± 1.8 µM
Cn1cncn1.[Ru+2].c1cc(-c2ccc3ccccc3n2)nc(-c2ccc3ccccc3n2)c1.c1ccc2cc3nc4c5cccnc5c5ncccc5c4nc3cc2c1,4T1,"cell viability, MTT","4 h, green light, 10 min",EC50,14 ± 1 µM
Nc1ncnc2c1c(-c1ccc(Cl)c(C(F)(F)F)c1)cn2[C@@H]1O[C@H](CO)[C@@H](O)[C@H]1O,HEK,cytotoxicity,,EC50,84.2 ± 3.7 µM
CCc1noc(CC)c1C(=O)O[C@H]1C(C)=C[C@]23C(=O)[C@@H](C=C(CO)[C@@H](O)[C@]12O)[C@H]1[C@@H](C[C@H]3C)C1(C)C,primary human epidermal keratinocytes,"cell growth inhibition, CyQUANT DNA content",72 h,EC50,0.0011 µM

# Some of these lines once more:
SMILES,cell line,test,conditions,measurement,value
CC(C)C[C@@H](/C=C/[C@H](Cc1ccccc1)C(=O)N1CCC[C@H]1C(=O)N[C@H](C(=O)N[C@@H](CCCNC(=O)OCc1ccccc1)C(=O)NC1CC(C)(C)N([O])C(C)(C)C1)C(C)C)NC(=O)OCC[S+]([O-])CC1(C)COC1 (some centres unmarked),HT-1080,ferroptosis protection,with: erastin 10 µM,EC50,3.5 µM
C=C1[C@H](O)CC(=C/C=C2\CCC[C@]3(C)[C@@H]([C@@H](C)CCCC)CC[C@@H]23)C[C@H]1O,HL-60,"cell differentiation, NBT reduction",50% maturation,EC50,0.005 µM
CCc1noc(CC)c1C(=O)O[C@H]1C(C)=C[C@]23C(=O)[C@@H](C=C(CO)[C@@H](O)[C@]12O)[C@H]1[C@@H](C[C@H]3C)C1(C)C,primary human epidermal keratinocytes,"cell growth inhibition, CyQUANT DNA content",72 h,EC50,0.0011 µM
